Measured values pooled from the literature.
Several values in a cell are separate wells, animals, samples, runs or records. Numbers after ± are the reported error.

Compound	cell line	test	test system	setting	scale	quantity	value
Cn1nc(-c2ccc(Cl)cc2)nc2c(=O)n(C)c(=O)nc1-2	C127 LDR GFP reporter cells	silenced GFP reporter induction, activator, high-content imaging		retest, two-run mean		efficacy	55%
N#CCC(=O)NN	human iPSC-derived cardiomyocytes	MyBP-C/MYH ratio, plate-normalised SD score		concentration not given, primary screen	direction not given	activity score	3.8
CCCCc1oc2ccc(NS(C)(=O)=O)cc2c1C(=O)c1ccc(OCCCN(CCCC)CCCC)cc1	human embryonic stem cell aggregates	mRNA level, microarray, refers to: TTR		0.5 µM, 120 h	reference: untreated, up-regulated	fold change	1.7 fold
CC/C(=N\NC(=O)NCc1cccc(O)c1)c1ccc(O)c(C)c1O	SK-OV-3	Western blot, refers to: LATS		10 µM, 24 h, 3D gellan gum culture, unit not given	reference: β-actin	protein level	0.35 ± 0.03
CN1CCN(c2ccnc(C(=O)N3CCC[C@H](C(=O)Nc4cccc(-c5ccc6c(c5)C(=O)NC6)c4)C3)c2)CC1	U2OS			50 µM, with: ionizing radiation	reference: irradiated control	53BP1 foci formation reduction	~3 fold
CCCCN1CCN(c2ccc3[nH]c(-c4ccc5[nH]c(-c6ccc(C(F)(F)F)cc6)nc5c4)nc3c2)CC1	M14	SRB		10 µM, 48 h		growth percent	-63.5%
Clc1ccc(C2(c3ccc(-c4cn[nH]c4)cc3)CCNCC2)cc1	primary CLL cells	flow cytometry	human	0.01 µM, 24 h	reference: DMSO, higher = more protein	Bcl-2 MFI	3860 a.u.
C[C@H]1[C@@H](O)O[C@@H]2O[C@@]3(C)CC[C@H]4[C@H](C)CC[C@@H]1[C@@]24OO3	THP-1	annexin V/PI flow cytometry, refers to: annexin V-/PI-		3.2 µM, 24 h		viable cells	95.9%
CN1CCN(CCCN2c3ccccc3Sc3ccc(C(F)(F)F)cc32)CC1	human iPSC-derived cardiomyocytes	MyBP-C/MYH ratio, plate-normalised SD score		concentration not given, primary screen	direction not given	activity score	5.2
O=C(CCCSc1nc2ccccc2c(=O)[nH]1)Nc1ccccc1	cells, COS-1, expressing proMMP-9	cell migration, 2D collagen dot migration		50 µM, 18 h		inhibition	64 ± 4%
CN(C)c1ccc(C(=C2C=CC(=[N+](C)C)C=C2)c2ccc(N(C)C)cc2)cc1	human iPSC-derived cardiomyocytes	MyBP-C/MYH ratio, plate-normalised SD score		concentration not given, primary screen	direction not given	activity score	5.9
CC[C@H](C)N(CC(=O)N(CC(=O)N(CC(=O)N(CC(=O)N(CC(=O)N(CC(=O)N(CC(N)=O)[C@@H](C)c1ccccc1)[C@@H](C)c1ccccc1)[C@@H](C)CC)[C@@H](C)c1ccccc1)[C@@H](C)c1ccccc1)[C@@H](C)CC)C(=O)CNCCCCN	THP-1 macrophages	refers to: IL-1β		50 µM, 72 h, with: LPS 2 ng/mL	reference: LPS alone	cytokine release	decreased
CCCCOC(=O)Cn1c2ccc(OC)cc2c2nc3ccccc3nc21	C127 LDR GFP reporter cells	silenced GFP reporter induction, activator, high-content imaging		retest, two-run mean		efficacy	36%
CCn1cc(-c2cc(Cn3ccoc3=N)cc3c2CCN([C@@H](C)c2cc(OC)ccn2)C3=O)c(C(F)(F)F)n1	SNU1076	cell growth		120 h		EC50	0.0311 µM
CCOC(=O)c1c(NC(=O)CC2Nc3cc(C)c(C)cc3NC2=O)sc(C)c1C (stereo not shown)	C127 LDR GFP reporter cells	silenced GFP reporter induction, activator, high-content imaging		retest, two-run mean		efficacy	104%
Cc1n[nH]c2nc(-c3ccc(Cl)cc3)c3c(NC(=O)c4ccccc4)nnc-3n12	M14	SRB		10 µM, NCI60 single-dose screen	reference: untreated	cell growth	101%
Cc1cc(Nc2ncc(Cl)c(Nc3ccccc3S(=O)(=O)C(C)C)n2)c(OC(C)C)cc1C1CCNCC1	CLB-GE	phosphoproteomics LC-MS/MS, refers to: TNKS1BP1 phosphorylation		200 nM, 60 min	reference: untreated	log2 fold change	-2.45
CCCCCCCCCc1ccc(OCCOCCOCCOCCOCCOCCOCCOCCOCCO)cc1	human iPSC-derived cardiomyocytes	MyBP-C/MYH ratio, plate-normalised SD score		concentration not given, primary screen	direction not given	activity score	5.5
Cn1cncc1C1=CN(c2ncnc3[nH]cnc23)CCS1	T29			colon cancer		GI50	11.7 µM
NNc1nc(-c2ccc(Cl)cc2)c2c(NC(=O)c3ccccc3)nnc-2[nH]1	M14	SRB		10 µM, NCI60 single-dose screen	reference: untreated	cell growth	102%

Compound	cell line	test	test system	setting	scale	quantity	value
Cc1cc(N2CCc3c(c(C)nn3CC34CCC(NC(=O)[C@@H]5COCCN5)(CC3)CC4)C2)c2cnn(C)c2n1	human PBMC	qRT-PCR, refers to: IFI27 mRNA		100 nM, with: ssRNA		inhibition	96 ± 1%
COC1=CC(=O)C=C(OC)C1=O	human iPSC-derived cardiomyocytes	MyBP-C/MYH ratio, plate-normalised SD score		concentration not given, primary screen	direction not given	activity score	4.2
COc1cnc2cccc(N3CCc4c(cc(Cn5ccnc5C)cc4-c4cn(C)nc4C(F)(F)F)C3=O)c2c1	SNU1076	cell growth		120 h		EC50	0.0579 µM
CCOC(=O)c1cc2c(=O)n3ccccc3nc2n(Cc2ccco2)c1=NC(=O)c1ccc(Br)cc1	C127 LDR GFP reporter cells	silenced GFP reporter induction, activator, high-content imaging		retest, two-run mean		efficacy	65%
Nc1cccc2c1C(=O)N(C1CCC(=O)NC1=O)C2=O (stereo not shown)	bone marrow CD138+ myeloma cells	XTT		1.6 µM, mean of three patients		viability	17%
CC(C)NCC(O)c1ccc(O)c(O)c1 (stereo not shown)	mouse ventricular cardiomyocytes			dose not given, 0.227 s		sarcomere length	1.79 µm
C[C@@H]1CC[C@H]2C(C)(C)[C@H]3C[C@@]12CC[C@@]3(C)O	human iPSC-derived cardiomyocytes	MyBP-C/MYH ratio, plate-normalised SD score		concentration not given, primary screen	direction not given	activity score	9.4
CC(=O)c1nn(-c2ccc(Cl)cc2)/c(=N/N=C(\C)c2ccc(NC(=O)c3ccccc3)cc2)s1	HepG2			10 µM		toxicity	96.4%
CN[C@@H]1[C@@H](O)[C@@H](O[C@@H]2[C@@H](O)[C@H](O[C@H]3OC(CN)=CC[C@H]3N)[C@@H](N)C[C@H]2N)OC[C@]1(C)O	human iPSC-derived cardiomyocytes	MyBP-C/MYH ratio, plate-normalised SD score		concentration not given, primary screen	direction not given	activity score	3.3
CCn1cc(-c2cc(Cn3ccnc3)cc3c2CCN([C@H](c2cc(OC)ccn2)C2CC2)C3=O)c(C(F)(F)F)n1	OVISE	cell growth, inhibitor		120 h		EC50	8.02 µM
CC(Nc1nc(N2CCCC2)nc2ccccc12)c1ccccc1 (stereo not shown)	HeLa Kyoto reporter	importin β1-dependent cMyc import		up to 50 µM		nuclear import	no effect
COc1cc(/C=C/C(=O)CC(=O)/C=C/c2ccc(O)c(OC)c2)ccc1O	human cryopreserved primary enterocytes	androstenedione formation		100 µM		inhibition	~50%
CC(=O)Nc1cccc(-n2c(=O)n(C3CC3)c(=O)c3c(Nc4ccc(I)cc4F)n(C)c(=O)c(C)c32)c1	LoVo (KRAS G13D)	cell viability, resazurin		1.56 nM, 72 h	reference: DMSO	fractional effect	0.168 and 0.197
NCCOc1cc(NC(=O)c2cc(OCc3ccc(F)cc3)cc(C(=O)Nc3cc(OCCN)c4ccccc4n3)n2)nc2ccccc12	U2OS	cell viability, CellTiter-Glo		72 h	reference: IC50 U2OS over WI-38	selectivity ratio	0.9
C=CC1=C(C)c2cc3[n-]c(cc4nc(cc5[n-]c(cc1n2)c(C)c5C=C)C(C)=C4CCC(=O)O)c(CCC(=O)O)c3C.[Zn+2]	SH-SY5Y	RNA-seq, refers to: IQGAP2 mRNA		5 µM, 5 h	reference: untreated cells	fold change	1.88
Nc1cccc2c1CN(C1CCC(=O)NC1=O)C2=O (stereo not shown)	bone marrow CD138+ myeloma cells	XTT		0.8 µM, mean of three patients		viability	70%
C=Cc1c2[n-]c(c1C)/C=c1\[n-]/c(c(C)c1C=C)=C\c1[n-]c(c(CCC(=O)O)c1C)/C=c1\[n-]c(c(C)c1CCC(=O)O)=C2.[Sn+4]	SH-SY5Y	RNA-seq, refers to: KLF6 mRNA		5 µM, 5 h	reference: untreated cells	fold change	1.91
C[C@H](CCC(=O)O)[C@H]1CC[C@H]2[C@@H]3CC[C@@H]4C[C@H](O)CC[C@]4(C)[C@H]3C[C@H](O)[C@]12C	HIEC			concentration not given, with: lithocholic acid	reference: lithocholic acid alone	P-gp expression	decreased
Cc1ccccc1OCCn1cnc2cc([N+](=O)[O-])ccc2c1=O	C127 LDR GFP reporter cells	silenced GFP reporter induction, activator, high-content imaging		retest, two-run mean		efficacy	24%
CCCCCCCCCCCCCC(=O)N[C@@H](CCSC)C(=O)N[C@@H](C)C(=O)N[C@@H](CO)C(=O)N[C@@H](CCCNC(=N)N)C(=O)NCC(=O)N[C@@H](C)C(=O)N[C@@H](CC(C)C)C(=O)N[C@@H](CCCNC(=N)N)C(=O)N[C@@H](CCCNC(=N)N)C(=O)N[C@@H](CS)C(=O)N[C@@H](CC(C)C)C(=O)N[C@@H](CO)C(=O)N1CCC[C@H]1C(=O)NCC(=O)N[C@@H](CC(C)C)C(=O)N1CCC[C@H]1C(=O)N[C@@H](CCCNC(=N)N)C(=O)N[C@@H](CC(C)C)C(=O)N[C@@H](CC(C)C)C(=O)N[C@@H](Cc1c[nH]cn1)C(=O)N[C@@H](CC(C)C)C(=O)N[C@@H](CO)C(=O)N[C@@H](CCCNC(=N)N)C(=O)NCC(=O)N[C@@H](CC(C)C)C(=O)N[C@@H](C)C(N)=O	U2OS	cell viability, XTT		concentration not given, osteosarcoma		viability	inhibited

Repeated from above:
Compound	cell line	test	test system	setting	scale	quantity	value
C=Cc1c2[n-]c(c1C)/C=c1\[n-]/c(c(C)c1C=C)=C\c1[n-]c(c(CCC(=O)O)c1C)/C=c1\[n-]c(c(C)c1CCC(=O)O)=C2.[Sn+4]	SH-SY5Y	RNA-seq, refers to: KLF6 mRNA		5 µM, 5 h	reference: untreated cells	fold change	1.91
CN1CCN(c2ccnc(C(=O)N3CCC[C@H](C(=O)Nc4cccc(-c5ccc6c(c5)C(=O)NC6)c4)C3)c2)CC1	U2OS			50 µM, with: ionizing radiation	reference: irradiated control	53BP1 foci formation reduction	~3 fold
C[C@H]1[C@@H](O)O[C@@H]2O[C@@]3(C)CC[C@H]4[C@H](C)CC[C@@H]1[C@@]24OO3	THP-1	annexin V/PI flow cytometry, refers to: annexin V-/PI-		3.2 µM, 24 h		viable cells	95.9%
CCn1cc(-c2cc(Cn3ccoc3=N)cc3c2CCN([C@@H](C)c2cc(OC)ccn2)C3=O)c(C(F)(F)F)n1	SNU1076	cell growth		120 h		EC50	0.0311 µM
Cc1ccccc1OCCn1cnc2cc([N+](=O)[O-])ccc2c1=O	C127 LDR GFP reporter cells	silenced GFP reporter induction, activator, high-content imaging		retest, two-run mean		efficacy	24%
CCOC(=O)c1cc2c(=O)n3ccccc3nc2n(Cc2ccco2)c1=NC(=O)c1ccc(Br)cc1	C127 LDR GFP reporter cells	silenced GFP reporter induction, activator, high-content imaging		retest, two-run mean		efficacy	65%
